Measurements from different studies.
± gives the spread as reported.

COc1c(O)c(C)cc2c1C(=O)c1c(O)cccc1C2=O — cell viability (HepaRG co-cultured with HK-2; MTT; 266.67 µM, 48 h; reference: untreated control): 39.6 ± 8.26%
COc1cc(N2CCC(N3CCN(C)CC3)CC2)ccc1Nc1ncc(Cl)c(Nc2ccccc2P(C)(C)=O)n1 — Emax (Ba/F3 EML4-ALK v3, no mutation; cell viability): 98.8%
CCCCN1C[C@H](O)[C@@H](O)[C@@H](O)[C@H]1CO — IC50 (sample BA patient fibroblasts; Gb3 level lowering, LC-MS/MS, refers to: Gb3 d18:1/18:0; 216 h): 24 µM
CCn1c2ccc(CNCCOCCOCCOCCC(=O)NCCOc3ccc(CCc4nc5cc(-c6c(C)noc6C)ccc5n4CCN4CCOCC4)cc3F)cc2c2ccc(-c3cc(C)cs3)cc21 — inhibition (U2OS p53 wild type; cell viability; 10 µM, 72 h, highest concentration tested): 30 to 40%
O=C1c2cccc(O)c2C(=O)c2c(O)cc(CO)cc21 — cell viability (HepaRG co-cultured with HK-2; MTT; 266.67 µM, 48 h; reference: untreated control): 35.5 ± 2.23%
CC(C)NCC(O)c1ccc(O)c(O)c1 (stereo not drawn) — sarcomere length (mouse ventricular cardiomyocytes; dose not given, 0.107 s): 1.68 µm
CCCC(=O)O — viability (OCI-Ly1; 1 µM, 120 h): 144%
CCn1cc(-c2cc(Cn3ccnc3)cc3c2CCN([C@H](c2cc(OC)ccn2)C2CC2)C3=O)c(C(F)(F)F)n1 — EC50 (JHH7; cell growth, inhibitor; 120 h): 25.2 µM
CCN1CCN(c2cc(N3CCN(CC)CC3)nc(NCCNc3ccnc4cc(Cl)ccc34)n2)CC1 — necrotic cells (COS-7; 30 µM, 24 h, 0.1% DMSO, unit not given; reference: vehicle control): 2.72 ± 0.65
O=C(COc1cccc2c1C(=O)N(C1CCC(=O)NC1=O)C2=O)NCCOCCOCCNS(=O)(=O)Nc1cccc(-c2cn3cc(C(=O)NC4CCC4)ccc3n2)c1 (stereo not drawn) — log2 fold change (MV4-11; TMT proteomics, refers to: PGLS protein; 10 µM, 4 h; reference: DMSO): -0.079
C#CCCC1(CCC(=O)N2[C@H](c3ccc4c(c3)OCO4)c3[nH]c4ccccc4c3C[C@@H]2C(=O)N2CCOCC2)N=N1 — LC3 puncta formation (HeLa stably expressing GFP-LC3; concentration not given, 4 h): inactive
CCCCN1CCN(c2ccc3[nH]c(-c4ccc5[nH]c(-c6ccc(C(F)(F)F)cc6)nc5c4)nc3c2)CC1 — growth percent (786-0; cell growth, NCI-60 SRB; 10 µM, 48 h): -84.9%
C=CCNC1=C2C[C@@H](C)C[C@H](OC)[C@H](O)[C@@H](C)/C=C(\C)[C@H](OC(N)=O)[C@@H](OC)/C=C\C=C(/C)C(=O)NC(=CC1=O)C2=O — EC50 (iPSC-derived cardiomyocytes; concentration-response curve, refers to: MyBP-C/MYH ratio; 24 h): 4.7 µM
CC(C)C[C@H](NC(=O)C[C@H](O)[C@H](CC(C)C)NC(=O)[C@H](Cc1c[nH]cn1)NC(=O)CNC(=O)[C@@H](NC(=O)[C@H](C)NC(=O)[C@H](Cc1c[nH]c2ccccc12)NC(=O)[C@H](CCC(N)=O)NC(=O)[C@@H](Cc1ccccc1)NC(=O)COCCOCCNC(=O)CCC(C(=O)O)N1CCN(CC(=O)O)CCN(CC(=O)O)CCN(CC(=O)O)CC1)C(C)C)C(N)=O (stereo partly drawn) [lutetium-177 labelled] — tissue uptake (female BALB/c nu/nu mice, blood; intravenous, 100 pmol, 90 h, added: PA 300 µg): 0.004 ± 0.002 %ID/g
CCCCc1nc2cc(/C=C/C(=O)NO)ccc2n1CCN(CC)CC — viability (OCI-Ly1; 0.5 µM, 120 h): 4.59%
CCCCc1nc(Cl)c(CO)n1Cc1ccc(-c2ccccc2-c2nn[nH]n2)cc1 — log2 fold change (human PBMC; RNA-seq, refers to: MT1HL1 mRNA; 10 µg/mL, 24 h; reference: untreated control): 2.46
CC(NC(=O)c1ccccc1/N=C/c1c(O)ccc2ccccc12)c1ccccc1 (stereo not drawn) — viability (OCI-Ly1; 1 µM, 120 h): 103%
Cn1cc(-c2ccc(-c3cncc(Cl)c3N3CCC4(CCNC4=O)CC3)cc2)cn1 — fold change in expression (COLO 205; microarray, refers to: MMP2; concentration not given, 2 h, gene set MMP-2; reference: untreated cells): 2.73
O=c1ncccn1[C@@H]1O[C@H](CO)[C@@H](O)[C@H]1O — viability (OCI-Ly1; 1 µM, 120 h): 165%
O=C(/C=C/C=C/C=C/C1CCCCC1)NC1=C[C@@](O)(/C=C/C=C/C=C/C(=O)NC2=C(O)CCC2=O)[C@@H]2O[C@@H]2C1=O — GI50 (TE-11; cell growth, CellTiter-Glo; 78 h): 26.5 µM
O=C(Nc1cnc2ccccc2c1)c1cc2[nH]ccc2cc1Cl — necrotic cells (COS-7; 10 µM, 24 h, 0.1% DMSO, unit not given; reference: vehicle control): 1.67 ± 0.3
Nc1ncnc2c1ncn2[C@@H]1O[C@H](CSCC[C@H](N)C(=O)O)[C@@H](O)[C@H]1O — viability (OCI-Ly1; 0.1 µM, 120 h): 177%
CC(=O)Nc1cccc(-n2c(=O)n(C3CC3)c(=O)c3c(Nc4ccc(I)cc4F)n(C)c(=O)c(C)c32)c1 — fractional effect (COLO 205 (BRAF V600E); 1.56 nM; reference: DMSO): 82%
Cc1[nH]c2ccccc2c1CCNCc1ccc(/C=C/C(=O)NO)cc1 — viability (OCI-Ly1; 0.5 µM, 120 h): 0.53%
COC(=O)[C@]12CCC(C)(C)C[C@H]1[C@H]1C(=O)C=C3[C@@]4(C)C=C(C#N)C(=O)C(C)(C)[C@@H]4CC[C@@]3(C)[C@]1(C)CC2 — point of departure (HepG2; refers to: phospholipidosis; 24 h, distribution mode 1): 0.000851 µM
CC[C@H](C)n1cc(C)c2c(C(=O)NCc3c(C)cc(C)[nH]c3=O)cc(-c3ccc(N4CCNCC4)nc3)cc21 — viability (OCI-Ly1; 0.1 µM, 120 h): 195%
CC/C(=N\NC(=O)NCc1cccc(O)c1)c1ccc(O)c(C)c1O — protein level (SK-OV-3; Western blot, refers to: TAZ; 10 µM, 6 h, 3D gellan gum culture, unit not given; reference: β-actin): 2.12 ± 1.02
